Experimental data from different studies.
Every numbered part comes from another study and shows a few of its results, in no order. Several values in a cell are separate wells, animals, samples, runs or records. Changes are numbered by the printed parent chain.
UniProt P32298, sequence (whole entry, looked up): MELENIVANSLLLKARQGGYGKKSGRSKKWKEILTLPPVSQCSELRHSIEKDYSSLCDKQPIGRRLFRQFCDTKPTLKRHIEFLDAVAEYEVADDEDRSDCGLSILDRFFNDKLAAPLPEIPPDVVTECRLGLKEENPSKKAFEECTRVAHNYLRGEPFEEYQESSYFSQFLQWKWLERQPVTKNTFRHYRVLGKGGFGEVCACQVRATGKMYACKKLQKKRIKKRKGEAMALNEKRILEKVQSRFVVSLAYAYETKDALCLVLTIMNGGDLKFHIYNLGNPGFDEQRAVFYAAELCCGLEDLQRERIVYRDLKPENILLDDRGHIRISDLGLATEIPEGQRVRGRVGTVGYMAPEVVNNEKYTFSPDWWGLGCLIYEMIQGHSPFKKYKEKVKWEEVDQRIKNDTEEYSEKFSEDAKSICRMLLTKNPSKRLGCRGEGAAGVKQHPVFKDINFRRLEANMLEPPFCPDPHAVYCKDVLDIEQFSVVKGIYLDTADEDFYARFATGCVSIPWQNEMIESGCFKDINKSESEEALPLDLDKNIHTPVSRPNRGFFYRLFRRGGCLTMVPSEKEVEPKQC
UniProt P31751, sequence (whole entry, looked up): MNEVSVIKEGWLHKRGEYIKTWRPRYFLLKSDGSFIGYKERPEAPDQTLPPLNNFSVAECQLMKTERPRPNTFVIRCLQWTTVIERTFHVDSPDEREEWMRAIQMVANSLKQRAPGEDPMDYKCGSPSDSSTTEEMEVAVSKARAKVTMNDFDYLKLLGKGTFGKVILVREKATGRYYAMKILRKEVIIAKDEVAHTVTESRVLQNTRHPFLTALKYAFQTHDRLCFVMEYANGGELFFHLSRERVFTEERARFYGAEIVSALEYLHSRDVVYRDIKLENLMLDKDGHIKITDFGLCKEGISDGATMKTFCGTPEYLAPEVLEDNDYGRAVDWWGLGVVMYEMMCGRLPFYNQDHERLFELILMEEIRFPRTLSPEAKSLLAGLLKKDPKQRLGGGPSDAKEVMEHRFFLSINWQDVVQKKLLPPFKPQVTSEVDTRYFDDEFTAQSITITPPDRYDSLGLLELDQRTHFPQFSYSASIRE

Study 1
Compound: Cn1cncc1[C@](O)(COc1ccc(C#N)cc1-c1ccc(OC(F)(F)F)cc1)c1ccc(C#N)cc1
Read-out: cell-free assay
Method: competition with immobilised ligand
Tested at: 1 µM
target	remaining binding [%]
AKT2 (Homo sapiens, UniProt P31751)	81
GRK4 (Homo sapiens, UniProt P32298)	62
FLT3 (Homo sapiens, UniProt P36888)	87

Study 2
Target: HLA class I histocompatibility antigen, C alpha chain, allele C*04:01 (Homo sapiens, UniProt P10321)
Read-out: peptide-MHC binding
Form: peptide
Tested at: concentration not given
Sequence	binding
YRWVNLASF	inactive
RLPAYAPLL	inactive
VALFSSCPVAY	inactive
RYRQVLSPL	inactive
YYRYPTGESY	inactive
KQLELFWVI	inactive
RYPIDPFLL	inactive
AYFLEAQEM	inactive

Study 3
Target: CCNA1, cyclin fold, Cln2 fusion (human)
Method: yeast growth competition, sequencing
Medium: yeast
Notes: weak parent motif
Baseline: not given
Direction: higher = stronger binding
Starting sequence: viral docking peptide; KGVKRKLFAEDSS
Variant	normalised enrichment score
V3M	0.0643
D11Y	0.873
V3F	0.522
K6E	1.12
K4I	0.445
L7N	0.279
S12F	1.11
L7S	0.282

Single results of other studies
Read-out: necroptosis protection
Method: CCK-8
SMILES	cell line	setting	viability
CC(C)S(=O)(=O)c1ccc2nccc(Nc3ccc4scnc4c3)c2c1	L929	10 µM, with: TNF-α plus zVAD	71.7%
CC(C)(C)c1nc(-c2cccc(NS(=O)(=O)c3c(F)cccc3F)c2F)c(-c2ccnc(N)n2)s1	L929	100 µM, with: TNF-α-induced	69.1%
CC[C@H](C)c1nc2cc(Nc3ccnc4ccc(S(=O)(=O)C(C)C)cc34)ccc2s1.Cl	HT-29	0.156 µM, with: TNF-α SMAC mimetic zVAD	12.4% and 16.6% and 11.5% and 18.1% and 18.7%
N#Cc1c(Oc2ccc(F)c(NC(=O)Cc3cccc(C(F)(F)F)c3)c2)ccc2nc(NC(=O)C3CC3)sc12	L929	5 µM, with: TNF-α-induced	66.9%

Some of these lines once more (study 3):
Variant	normalised enrichment score
V3M	0.0643
D11Y	0.873
